Measurements of several laboratories.
Protocols differ between the studies behind these lines. “And” joins repeats or separate records; there may be more than shown. ± marks the error that the study gave.

O=C(O)C(Cc1c[nH]cn1)N1C(=O)c2ccc3c4ccc5c6c(ccc(c7ccc(c2c37)C1=O)c64)C(=O)N(CCN1CCCCC1)C5=O (stereo not drawn) — logD (shake flask; aqueous buffer; pH 8): 2.25
Cc1nc(N)nc2c1C(=O)N[C@@H](c1ccc(F)cc1-c1cccc(O[11CH3])n1)C2 — tracer uptake (ex vivo biodistribution; healthy mice, pancreas; 60 min post-injection, baseline, vehicle pre-treatment): 1.9 ± 0.2 %ID
COc1ccc2c(c1)CCn1c[n+]3c(c1-2)-c1ccc(OC)cc1CC3 — Basophils (female NSG mice, blood; 6 mg/kg, day 20, 5 days per week): 4 ± 2.69%
O=C(O)CN1CCN(Cc2cccc(C(=O)O)n2)CCN(CP(=O)(O)O)CC1 — log Ka (potentiometric titration; second phosphonate deprotonation): 7.01
O=C(Nc1cnccc1-c1ccc([18F])cc1)c1ccnc(NC(=O)C2CC2)c1 — SUV (mice, transgenic, GSK-3β, early-stage, blood; intravenous, dose not given, 120 min): 0.17
CC(C(=O)O)n1nc(Cn2cc3cc(OCC[18F])c(Cl)cc3n2)c2ccccc2c1=O (racemic) — tracer uptake (rat, kidney; 5 min): 3.93 %ID/g
CNc1cc(N)c(C(N)=O)cn1 — concentration at time (Han Wistar rats, male, plasma; oral, 30 mg/kg, 4.00 h): 3.36 µM
Fc1cccc(-n2cc(-c3ccccc3)nc2NCc2ccc(C(F)(F)F)c(Br)c2)c1 — AUC(0-last) (CD-1 mice, male, intestine; intraperitoneal, 25 mg/kg, single dose): 662 µg·h/mL
CN1CCC[C@]1(C)/C=C/S(=O)(=O)NC(=O)Nc1c2c(cc3c1CCC3)CCC2 — subjects with adverse event (refers to: gastrointestinal disorders; human; oral, 100 mg twice daily, 14 days, multiple ascending dose): 0%
CC[C@H](C)[C@H](NC(=O)[C@H](CCCCN)NC(=O)[C@H](CCC(=O)O)NC(=O)[C@H](CCCCN)NC(=O)[C@H](CC(C)C)NC(=O)[C@H](C)NC(=O)[C@H](C)NC(=O)[C@@H](NC(=O)[C@H](CCCCN)NC(=O)[C@@H]1CSCc2ccccc2CSC[C@H](NC(=O)[C@@H](NC(=O)[C@H](CCCCN)NC(C)=O)[C@@H](C)CC)C(=O)N[C@@H](C)C(=O)N[C@@H](CC(C)C)C(=O)N[C@@H](CCCCN)C(=O)N1)[C@@H](C)CC)C(=O)N[C@@H](C)C(=O)N[C@@H](C)C(=O)N[C@@H](CC(C)C)C(=O)N[C@@H](CCCCN)C(=O)N[C@@H](CCC(=O)O)C(=O)NCC(=O)N[C@@H](Cc1c[nH]c2ccccc12)C(N)=O — ΔG of membrane partitioning (tryptophan fluorescence titration; DOPC/DOPE/cholesterol 2:1:1 liposomes in PBS): -7.3 kcal/mol
CN(C)S(=O)(=O)c1ccc(S(=O)(=O)N2CCC(n3c(=O)[nH]c4ccccc43)CC2)cc1 — body weight (mouse; intraperitoneal, 6 mg/kg, 2 day; baseline: day 0): 95.2%
COCCN(C)CC(=O)NC(Cc1ccc(-c2ccccc2)cc1)B(O)O (stereo not drawn) — tmax (male Sprague-Dawley rats, plasma; intravenous, 1 mg/kg, citrate ester): 4.8 min
CC[C@H](C)[C@@H]1NC(=O)[C@H](Cc2ccc(O)cc2)NC(=O)CCCSC[C@@H](C(=O)N(CC(=O)N[C@@H](CC(C)C)C(=O)NCC(N)=O)Cc2ccc(F)cc2)NC(=O)[C@H](CC(N)=O)NC(=O)[C@H](CCC(N)=O)NC1=O — AUC(0-inf) (healthy women, plasma; intranasal, 200 µg single dose): 0.086 ng·h/mL
COCC1CN(C2CCN(c3cc(OC)c(Nc4ncc(Br)c(Nc5ccc6c(c5P(C)(C)=O)OCCO6)n4)cc3C)CC2)C1 — treatment-related serious AEs (phase 1 trial; human, advanced EGFR-mutant NSCLC; oral, dose not given): 14.8%
CN(O)C(=O)CCC(=O)NCCCN(CCCCN(CCCNC(=O)CCC(=O)N(C)O)C(=O)CCC(=O)N(C)O)C(=O)CCC(=O)N(C)O.[89Zr] — tracer uptake (mouse, kidney; 4 h): 2.44 %ID/g
CCCCN1C(=O)c2cccc3c(NCCCCCCCCN4CCOCC4)ccc(c23)C1=O — fluorescence lifetime (dichloromethane): 10.5 ns
Cc1nn(-c2nc3c(F)cc(F)cc3s2)c(O)c1C(c1ccc(C(F)(F)F)cc1)c1c(C)nn(-c2nc3c(F)cc(F)cc3s2)c1O — plasma concentration (ICR mouse; intravenous, 5 mg/kg, 4.00 h): 5820 ng/mL and 1190 ng/mL and 5230 ng/mL
CCCC[C@H](NC(=O)CNC(=O)CNC(=O)[C@H](CCCCNC(=O)[C@H](CC(=O)O)NC(=O)C(C)c1ccc(CC(C)C)cc1)NC(=O)CN1CCN(CC(=O)O)CCN(CC(=O)O)CCN(CC(=O)O)CC1)C(=O)N[C@H]1CC(=O)NCCCC[C@@H](C(N)=O)NC(=O)[C@H](Cc2c[nH]c3ccccc23)NC(=O)[C@H](CCCNC(=N)N)NC(=O)[C@@H](Cc2ccccc2)NC(=O)[C@H](Cc2c[nH]cn2)NC1=O (stereo partly drawn) [lutetium-177 labelled] — tumour-to-tissue ratio (C57 mice, tumour; intravenous, 0.037 MBq, 0.5 h; baseline: blood): 2.7
C=CC(=O)Nc1cc(Nc2nccc(-c3c[nH]c4ccccc34)n2)c(OC)cc1N(C)CCN(C)C — recovery (storage stability; human plasma; 2 h, -80 °C, LLOQ level): 103%
CC(C)C[C@H](NC(=O)[C@H](CCCCN)NC(=O)[C@H](CC(C)C)NC(=O)[C@H](CCCCN)NC(=O)C1CCCC=CCCC(NC(=O)[C@H](CCCCN)NC(=O)[C@H](CC(C)C)NC(=O)[C@H](CCCCN)NC(=O)[C@@H](N)CC(C)C)C(=O)N[C@@H](CCCCN)C(=O)N2CCC[C@@H]2C(=O)NCC(=O)N[C@@H](CCCCN)C(=O)N1)C(N)=O (stereo partly drawn) — retention time (RP-HPLC C18; hydrophobicity): 14.3 min
N#Cc1cccc(-c2ccc3ncc(-c4cc(F)cc(F)c4)c(N4CCC(NC(=O)OC5OC(C(=O)O)C(O)C(O)C5O)CC4)c3c2)c1O (stereo not drawn) — radioactivity recovered (human, faeces; oral, 20 mg, 120 h, 14C-paltusotine dosed): 2.5 %dose
N=C(N)NCCC[C@@H]1NC(=O)[C@H](CO)NC(=O)[C@@H](NC(=O)[C@H](CO)NC(=O)[C@H](CO)NC(=O)[C@H](Cc2c[nH]c3ccccc23)NC(=O)CNC(=O)[C@H](CO)NC(=O)[C@@H](N)Cc2c[nH]c3ccccc23)CSSC[C@@H](C(=O)NCC(=O)O)NC(=O)[C@H](CO)NC1=O — Cmax (patients, plasma; intravenous, 10 mg/kg, thrice weekly, geometric mean): 5880 ng/mL
CC(C)(O)c1ncc([S@](N)(=O)=NC(=O)Nc2c3c(cc4c2CCC4)CCC3)s1 — total adverse events (healthy human; oral, 10 mg single dose, capsule formulation): 33%
C/C(N)=N/C(=N\S(=O)(=O)c1ccc(C(F)(F)F)cc1)N1C[C@H](c2ccccc2)C(c2ccc(Cl)cc2)=N1 — biliary and urinary excretion (male Sprague-Dawley rat, bile and urine; intravenous, 3 mg/kg; baseline: dose): < 1%
N#C[C@@H]1CC(F)(F)CN1C(=O)CNC(=O)c1ccnc2c(NC(=O)[C@H](CCCCNC(=O)CCOCCOCCOCCOCCOCCOCCNC(=O)CN3CCN(CC(=O)[O-])CCN(CC(=O)[O-])CCN(CC(=O)[O-])CC3)NC(=O)CCCc3ccc(I)cc3)cccc12.[177Lu+3] — blood radioactivity (U-87 MG tumour-bearing mice, blood; dose not given, 4 h post-injection, biodistribution): 6.43 ± 3.23%
C=CC(=O)N1CCCC(n2c(=O)c3ncccc3n(Cc3ccc(Oc4ccccc4)cc3)c2=O)C1 (stereo not drawn) — compound remaining (metabolic stability; male CD-1 mouse, hepatocytes; 1 µM, 30 min): 8.2%
COc1cc(N2CCN(C(=O)C3CCCN3)CC2)ccc1Nc1ncc(Cl)c(Nc2ccccc2P(C)(C)=O)n1 (stereo not drawn) — body weight (nude mice, NCI-H3122 xenograft; oral, dose not given, day 9): 23.5 g and 24.8 g and 24.3 g and 22.2 g and 23 g
CN1CCC[C@]1(C)/C=C/S(=O)(=O)NC(=O)Nc1c2c(cc3c1CCC3)CC=C2 — Cmax at first steady-state dose (human, plasma; oral, 12.5 mg twice daily of parent drug, day 14, metabolite of dosed drug): 7500 ng/mL
O=S(=O)(NCc1ccncc1)c1ccc(C2CCCCC2)cc1 — swim speed change (CK-p25 mouse; 0.3 mg/kg; baseline: vehicle): 15 ± 3 cm/s
CC(C)c1cc(C(=O)NCCN(C)C)c2cnn(C(C)C)c2n1 — scaled CLint (metabolic stability; mouse, liver microsomes): 457 mL/min/kg
CN1CCCNC(=O)c2cccc(c2)C(=O)NCCCN(C)CCCNc2cccc3c2C(=O)c2cccc(c2C3=O)NCCC1 — body weight (mouse xenograft model; dose not given, day 4): 26 g and 27 g and 29 g
C#CCOCCOCCOCCOCCn1cc(C(ONC(=O)/C=C/C(C)=C/C2(C)Oc3cc(N(C)C)ccc3C2=O)(c2ccc(C)cc2)c2ccc(C)cc2)nn1 (stereo not drawn) — release from prodrug hydrolysis (HPLC; aqueous buffer, 20% acetonitrile; concentration not given, 43 min, pH 3; baseline: initial prodrug amount): 93.5%
[11CH3]N1CCC(NC(=O)c2cc(-c3c(O)cc(O)cc3Oc3ccc([N+](=O)[O-])cc3)on2)CC1 — SUV (Wistar rat, female, healthy, lungs; intravenous, 18.5 MBq, 60 min): 1 ± 0.1
COc1ccc(C(N)=O)cn1 — concentration at time (Han Wistar rats, male, plasma; oral, 30 mg/kg, 1.50 h): 63.4 µM
CC[C@H](C)[C@H](NC(=O)CNC(=O)[C@H](C)NC(=O)[C@H](CC(=O)O)NC(=O)[C@H](CO)NC(=O)[C@H](C)NC(=O)[C@H](CC(C)C)NC(=O)[C@H](CCCCN)NC(=O)[C@H](CCCCN)NC(=O)[C@H](CCSC)NC(=O)[C@H](CC(N)=O)NC(=O)[C@H](Cc1ccccc1)NC(=O)[C@H](CC(=O)O)NC(=O)[C@@H](N)CCSC)C(=O)N[C@@H](Cc1c[nH]c2ccccc12)C(=O)N[C@@H](Cc1ccccc1)C(=O)N[C@H](C(=O)N[C@@H](CCCNC(=N)N)C(=O)N[C@@H](C)C(=O)N[C@H](C(=O)N[C@@H](CCC(N)=O)C(=O)N[C@@H](Cc1ccccc1)C(=O)N[C@H](C(=O)N[C@@H](CCC(=O)O)C(=O)N[C@@H](CCC(=O)O)C(=O)N[C@@H](CCCCN)C(=O)N[C@@H](Cc1ccccc1)C(=O)NCC(=O)N[C@@H](CCC(N)=O)C(=O)N[C@@H](C)C(N)=O)[C@@H](C)O)C(C)C)[C@@H](C)O — ΔG of binding (circular dichroism titration; 100% DOPS liposomes; 50 µM, pH 7.4, 20 °C): -6.6 kcal/mol
O=C(Nc1cnccc1-c1ccc([18F])nc1)c1ccnc(NC(=O)C2CC2)c1 — SUV (PET imaging; FVB/NJ mice, both sexes, brain; intravenous, 10 min post-injection): 0.099
CC(C)[C@H](NC(=O)[C@H](Cc1c[nH]c2ccccc12)NC(=O)[C@H](CCCNC(=N)N)NC(=O)[C@H](CCCNC(=N)N)NC(=O)[C@@H](NC(=O)[C@@H](NC(=O)[C@H](CCCNC(=N)N)NC(=O)[C@@H](NC(=O)[C@@H](NC(=O)[C@H](CCCNC(=N)N)NC(=O)[C@H](CCCNC(=N)N)NC(=O)[C@@H](NC(=O)[C@H](Cc1c[nH]c2ccccc12)NC(=O)[C@H](CCCNC(=N)N)NC(=O)[C@H](CCCNC(=N)N)NC(=O)[C@@H](NC(=O)[C@H](CCCNC(=N)N)NC(=O)[C@H](CCCNC(=N)N)NC(=O)[C@@H](NC(=O)[C@H](Cc1c[nH]c2ccccc12)NC(=O)[C@H](CCCNC(=N)N)NC(=O)[C@@H](N)CCCNC(=N)N)C(C)C)C(C)C)C(C)C)C(C)C)C(C)C)C(C)C)C(C)C)C(=O)N[C@@H](CCCNC(=N)N)C(=O)N[C@@H](CCCNC(=N)N)C(=O)O — creatinine (CD1 mouse, plasma; intravenous, 15 mg/kg, 24 h, [14C]-labelled compound): < 0.2 mg/dL
CC1(C)OB(/C=C/COCC(=O)OCc2ccccc2)OC1(C)C — release yield (1H NMR; pH 7.4, 25 °C, oxidative cleavage, added: H2O2): 90%
C=C(NC(=O)c1csc(-c2nc3c(cc2O)-c2nc(cs2)C(=O)NC(C(C)O)C(=O)NC(=C(C)OC)c2nc(cs2)C(=O)NC2c4nc(cs4)C(=O)NC(COC(=O)c4c5c6c(cccc6n4O)COC(=O)C(OC4CC(C)(O)C(N(C)C)C(C)O4)C2OC5)c2nc-3cs2)n1)C(N)=O (stereo not drawn) — Tmax (ICR mice, Streptococcus pneumoniae ATCC 49169 infected, immunocompromised, blood; intravenous, 2 mg/kg/day twice daily): 4.8 min
O=C(Cc1ccc(OCc2ccccc2)cc1)NC1(C(=O)O)CCN(C(=O)c2ccc(-c3cccc(Cl)c3)cc2)CC1 — apparent clearance CL/F (mouse BALB/c female; intraperitoneal, 20 mg/kg): 50.1 ± 1.17 mL/min/kg
Cc1c(Cc2cc(Cl)cc(O[C@H](C)C(=O)O)c2)c2ccc(C(=O)N[C@@H](C)c3ccc(C(C)(C)C)cc3)cc2n1CC(C)C — half-life (human liver microsomes): 56 min
O=c1c2sccc2n(CC2COc3ccccc3O2)c(=O)n1O (stereo not drawn) — efflux ratio (Caco-2; 10 µM): 0.4

Some of these lines once more:
CC1(C)OB(/C=C/COCC(=O)OCc2ccccc2)OC1(C)C — release yield (1H NMR; pH 7.4, 25 °C, oxidative cleavage, added: H2O2): 90%
COc1cc(N2CCN(C(=O)C3CCCN3)CC2)ccc1Nc1ncc(Cl)c(Nc2ccccc2P(C)(C)=O)n1 (stereo not drawn) — body weight (nude mice, NCI-H3122 xenograft; oral, dose not given, day 9): 23.5 g and 24.8 g and 24.3 g and 22.2 g and 23 g
Cc1nn(-c2nc3c(F)cc(F)cc3s2)c(O)c1C(c1ccc(C(F)(F)F)cc1)c1c(C)nn(-c2nc3c(F)cc(F)cc3s2)c1O — plasma concentration (ICR mouse; intravenous, 5 mg/kg, 4.00 h): 5820 ng/mL and 1190 ng/mL and 5230 ng/mL
O=C(Nc1cnccc1-c1ccc([18F])nc1)c1ccnc(NC(=O)C2CC2)c1 — SUV (PET imaging; FVB/NJ mice, both sexes, brain; intravenous, 10 min post-injection): 0.099
O=c1c2sccc2n(CC2COc3ccccc3O2)c(=O)n1O (stereo not drawn) — efflux ratio (Caco-2; 10 µM): 0.4
CN(O)C(=O)CCC(=O)NCCCN(CCCCN(CCCNC(=O)CCC(=O)N(C)O)C(=O)CCC(=O)N(C)O)C(=O)CCC(=O)N(C)O.[89Zr] — tracer uptake (mouse, kidney; 4 h): 2.44 %ID/g
O=C(O)CN1CCN(Cc2cccc(C(=O)O)n2)CCN(CP(=O)(O)O)CC1 — log Ka (potentiometric titration; second phosphonate deprotonation): 7.01
